Published values from different studies.
Numbered parts are unrelated; each lists some results of a single study. Changes are numbered by the printed parent chain.

Set 1
Target: CCNA1, cyclin fold, Cln2 fusion (human)
Method: yeast growth competition, sequencing
Medium: yeast
Setting: weak parent motif
Baseline: not given
Reading: higher = stronger binding
Starting sequence: PKN2 docking peptide (human); VSAVQKLDFSDTM; partner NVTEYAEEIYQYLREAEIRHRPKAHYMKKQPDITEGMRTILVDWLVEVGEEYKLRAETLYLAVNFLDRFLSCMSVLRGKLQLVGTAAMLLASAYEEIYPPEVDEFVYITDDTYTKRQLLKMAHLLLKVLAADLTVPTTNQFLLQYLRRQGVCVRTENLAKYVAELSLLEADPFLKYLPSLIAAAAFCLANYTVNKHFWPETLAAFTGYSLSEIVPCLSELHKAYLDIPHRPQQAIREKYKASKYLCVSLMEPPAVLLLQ
Substitution	normalised enrichment score
S2K	0.254
S10F	-0.174
V1C	0.151
V1G	0.0335
D8V	0.213
V1Y	0.315
K6G	0.317
K6T	0.195
S2L	0.234
S2G	0.142
D8M	0.217
S2E	-0.0348
M13V	0.252
S10E	0.501
V4M	0.278
S2V	0.263
F9S	0.582
D11F	0.0662
K6C	0.251
T12R	0.13
D8C	0.255
F9V	0.0233
F9Q	0.231
V1N	0.149
D11K	0.251

Set 2
Target: ABI1, truncated, D143A, DHFR fusion (Arabidopsis thaliana)
Method: DHFR PCA, deep sequencing
Medium: yeast
Setting: methotrexate growth selection, single substitutions
Together with: (+)-ABA 0.0091 µM
Baseline: wild-type fitted maximum
Reading: higher = stronger binding
Starting sequence: PYL1, truncated, DHFR fusion (Arabidopsis thaliana); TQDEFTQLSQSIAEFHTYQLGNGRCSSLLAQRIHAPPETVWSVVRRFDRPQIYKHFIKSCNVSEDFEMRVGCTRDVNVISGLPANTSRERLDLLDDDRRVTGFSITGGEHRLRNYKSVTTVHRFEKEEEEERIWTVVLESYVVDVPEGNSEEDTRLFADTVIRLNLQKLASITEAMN; partner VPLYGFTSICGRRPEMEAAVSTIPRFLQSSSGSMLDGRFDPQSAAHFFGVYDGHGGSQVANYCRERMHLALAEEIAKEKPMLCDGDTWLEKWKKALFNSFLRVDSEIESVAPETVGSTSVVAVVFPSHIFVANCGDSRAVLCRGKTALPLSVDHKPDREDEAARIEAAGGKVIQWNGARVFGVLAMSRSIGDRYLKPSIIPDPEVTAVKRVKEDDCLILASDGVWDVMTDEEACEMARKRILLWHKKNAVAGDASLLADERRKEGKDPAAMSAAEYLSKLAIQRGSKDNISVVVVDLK
Substitution	relative binding score
V70D	7.25%
D75R	5.84%
K126Q	42.4%
A84T	24%
R45N	-1.04%
D95V	-7.93%
D95M	-5.05%
H34V	1.6%
G148C	6.06%
P83Y	5.33%
V137I	-4.09%
S59G	5.89%
S11Y	28.4%

Set 3
Target: FOSL1, bZIP domain (human)
Method: DHFR protein complementation
Medium: yeast
Setting: single substitutions, most at no-binding floor
Baseline: wild-type JUN-FOS pair
Reading: higher = stronger binding
Starting sequence: JUN, bZIP domain (human); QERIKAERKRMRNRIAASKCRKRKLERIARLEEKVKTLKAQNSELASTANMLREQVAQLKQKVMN; partner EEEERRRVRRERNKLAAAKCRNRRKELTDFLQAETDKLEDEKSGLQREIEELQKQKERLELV
Substitution	binding fitness
E54R	-0.561 natural log
A57K	-0.393 natural log
L38V	-1.37 natural log
T48L	-0.398 natural log
S47I	-0.407 natural log
E32R	-0.266 natural log
A29I	-0.56 natural log
Q58R	-0.592 natural log
I28D	-0.813 natural log
L45I	-1.48 natural log
S43P	-1.41 natural log
A29M	-0.83 natural log
R30K	-0.487 natural log
I28Y	-0.744 natural log
L52A	-1.4 natural log
R30Q	-0.161 natural log
L38A	-1.27 natural log
L45C	-1.36 natural log
L45P	-1.31 natural log
L52H	-1.49 natural log

Set 4
Target: RING finger protein unkempt homolog, zinc fingers 1-6, GST-SBP tag (UNK, Homo sapiens, UniProt Q9C0B0, residues 30-357)
Method: RNA Bind-n-Seq
Molecule type: RNA
Medium: in vitro
Concentration: not given
Setting: RNA with constant flanks, ends assumed
Baseline: input RNA pool
Reading: higher = stronger binding
All sequences stand within: GGGAGUUCUACAGUCCGACGAUC … CAACAGAGGAUUGAGCAUCA
Target sequence (chain): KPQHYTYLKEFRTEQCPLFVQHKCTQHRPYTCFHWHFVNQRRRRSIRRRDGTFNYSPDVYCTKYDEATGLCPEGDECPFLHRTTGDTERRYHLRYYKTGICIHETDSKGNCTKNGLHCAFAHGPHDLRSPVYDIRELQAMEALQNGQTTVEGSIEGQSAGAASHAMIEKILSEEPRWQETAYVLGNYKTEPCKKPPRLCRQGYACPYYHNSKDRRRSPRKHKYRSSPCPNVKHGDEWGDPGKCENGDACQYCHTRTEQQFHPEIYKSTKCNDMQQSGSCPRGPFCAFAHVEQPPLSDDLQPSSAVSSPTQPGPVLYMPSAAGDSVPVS
Strand	bound/input enrichment [ratio]
UAAAAGAAAUAGCUGUUAUUAAUGCCUUUUUGUUUUCCAUUGAGUGUACACUACUGAAUAAGUGCCGGAGUUUUAUGUUUACCAUGUGAGUCCUGCAACACUAAAGAUAUUUUGAAUAUC	0.575
CCCAAGCACUGUAGAGGAAGCUGUGCUCGCCUUAGAGCAUUUUUUUUCUUGCGUUUUGGUUUCCGGGGUGGGUGGGUUGUGGCACACACCUCUGAGGCCAGAGCCAUCGGGUUCACCCUC	0.455
CUUGAUGAUGAUGAGUGUCCUUUACAAAUCUUCAGGGAAUGGCCAAGUGACAAAGGGAUUUCCGUCUUUCAGUUGAAGAGGAGGCCACCAGACCACAUCCCAAAGAAAACCAAGAAACAC	0.229
GGGGACCCGGAGCUGCAGCCCAUCCGGAGCUAUGAGAUCGCCAGCUUGGUCCGCACACUCUUCCGGCUGUCGUCUGCCAUCAACCACAGAUUUGCAGGACAGAUGGCGGCUCUGUGUUCC	0.122
CUUGAUUAUCUCAAGAGGGAAUGCGAGGCAAAAAGUGAAGUUAUGUUUUUUGCUGAUGCUACCCGCCACUUGGAAGAGAAGAAGAGGAAGAGGAAAAAGAGGGAGAAGUUGAUUCUAACG	0.212
GCAUAAAAAGCACAAUUGCUAGGACUUCAGUUUUUACUUCAGACUAAAGCUACCCAAGGACUCCGCAGAUAUGGGGGUUACAUCAGUGCUGGUCAUUGUAGCCUGAGUAUACAAUCAAGC	0.142
GCUCUGCCCAGUAUCCCUCACUUACCAAGAGGAGAAUGGAGGGAUAAUGGACUCACCCCCGCCCCGGGCUUCGACAUUGCAUGCUGGGAUCCAGCUCCUACCCUUCCUGCACUCCCUUCC	0.202
GGACCAUAAUCAUGGUGGACAUGAUGGACUUGCCCAGGUCGCGCAUCAACGCCGGCAUGCCCGCUCAAUUCAUCGACAAGCCUGUCUGCUUCGUAGGGAGGCUGGAAAAGAUUCAUCCCA	0.0807
UUUUUAUUAUACAUUUAUUUUUUGUCGUUAUAUACUGGUGUGUGAUCCAAGUUAUACAUGAACCGAAAAAGAUGGUGUUAAAUUUGUGUGUAGGCUGGGAAUUCUUGCUGAAGGAAUUGG	0.476
AAACUGUUCUACAGUGCAAAGAACACCAGCGAGCUCCUGUUUAAGAAAGAUAUCCUCGACUCCGUACAUGAAUUCCCUGAGAAGAUUUCUUGCAGUUUUCAUGUUACAAAACAGACAGCA	0.139
CCCCACAUACCAUCUGUAGAGUUGGAACUGCAUUCUUUUAAAGUUUUAUAUGCAUAUAUUUCCGGGCUGUAGACUUACUUUCCUAUUUUCUUUUCCAUUGCUUAUUCUUGAGCACAAAAU	1.01

Set 5
Target: Phosphate system positive regulatory protein PHO4, full length, GST-tagged (PHO4, Saccharomyces cerevisiae, UniProt P07270, residues 1-312)
Method: competition protein-binding microarray
Molecule type: double-stranded DNA, one strand shown
Medium: in vitro
Concentration: 2 µM
Setting: whole 60-bp probe, lowest competitor level
Together with: Cbf1 competitor, 0.05 µM
Reading: higher = stronger binding
All sequences stand within: … GTCTTGATTCGCTTGACGCTGCTG
Target sequence (chain): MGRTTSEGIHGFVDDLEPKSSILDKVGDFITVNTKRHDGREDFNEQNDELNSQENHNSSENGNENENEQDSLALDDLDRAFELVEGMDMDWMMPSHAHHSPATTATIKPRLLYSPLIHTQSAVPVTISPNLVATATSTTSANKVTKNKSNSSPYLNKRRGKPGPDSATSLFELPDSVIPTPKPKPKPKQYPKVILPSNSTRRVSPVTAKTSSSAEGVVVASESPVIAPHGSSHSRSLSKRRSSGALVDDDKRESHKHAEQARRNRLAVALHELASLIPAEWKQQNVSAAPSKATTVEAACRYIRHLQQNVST
Strand	fluorescence intensity [a.u.]
CTTCTGTAAATTTGTTGCGTGGGTGGACGCGCCCCG	6780
TGGAGTTGTAAACGACATGTGAACCCTTAACACCAA	5790
AGTTCTCGGACTTTTGACGTGCCAGTGCAATTATCC	4890
TCCTTATCTGGCGTACCCGTGCAAACGTTTCCGGGC	9630
CTTTCCCGATCTTTTCACGTGGGCTTAGCACATTTG	13800
TCTTGTTACATCCGTCACGGCATTCCAGCTGTAAAA	4210
AAAAATATGCATTTTCTCATGACAAATTCATTCGGA	3780
AGGACAAGTTGTAGTCACCTGGCAAACCGAAAACGG	4290
CCTAATGCTACTCATCACAGCAATAAGGACACCTTT	4520
AAAGCGGTAATTTATCACGTGTTTTCACATATCTAT	16000
TTTATCGGTGCCGGCCACGTGGGTACCTCTTGCGAA	19600
CTTCTGTAAATTTGCACGGTGGGTGGACGCGCCCCG	6610
CTAACGAAGGTTTGGTGGGTGGGTGACAAGCCAAGT	4110
AATCTGGTACCTTTCCATGTGGCACTTCAAAATTTT	7420
TTGCTCAACGTTAAAGACGTGCTTTTTTGACTGACT	6720
TCTTTTTTTTATTTGCACGTGCATCGAGGGGATCGA	17600
ATTCTTGGTACTTTAGTCGTGATTGTTTGACATGCC	5280
AGGACGAGAAACAAGCACATGATGTGTGTCGAAAAA	8860
GTAGTTCAAATCACCAGCGTGCTAACAATGTTCAAG	9250
CTTTCCCGATCTTGTCACATAACTTTAGCACATTTG	4500
CGGGGTTAAGTTTGCCTGGTGGGTGGCTTGCAGCAG	3970
GTACTGAGGTTAACACACGTTGTTGCGTACTCATCA	12600
CTTTCCCGATCTTGAAGCGTGGGTGTAGCACATTTG	8440
GTTGAATAAAGATTTCACGTGACTCGAGCTGGTCTT	9710
AAATTACTAAGTTGCGTCGTGGGTGACGCCGTATGA	8220

Further values, each from its own experiment
Molecule	target	test	test system	setting	how to read	quantity	value
PhoQ, residues 284 288 289 292 302 303 TVTVVA	PhoP, residues 12 14 15 18 19 LHTVM (Escherichia coli, UniProt P23836)	Sort-seq, refers to: YFP reporter	E. coli	PhoQ-PhoP variant library, together with: 10 µM Mg2+	baseline: high Mg2+ state, higher = stronger signaling	fold induction	16.5

For quick reference, copied from above (set 3):
Substitution	binding fitness
R30K	-0.487 natural log
I28Y	-0.744 natural log
I28D	-0.813 natural log
L45P	-1.31 natural log
R30Q	-0.161 natural log
L45I	-1.48 natural log
L38A	-1.27 natural log
A29I	-0.56 natural log
E54R	-0.561 natural log
